Results collected from several papers.
Each numbered part is a random draw from the data of one study; scales do not carry over between parts. Substitutions count along the parent as printed.

Block 1 — method: competition protein-binding microarray; form: double-stranded DNA, one strand shown; sample: in vitro; tested at: 2 µM; added: Pho4 competitor, 0.05 µM; reading: higher = stronger binding
Target: Centromere-binding protein 1, full length, His-tagged (CBF1, Saccharomyces cerevisiae, UniProt P17106, residues 1-351)
UniProt P17106, sequence (whole entry, looked up): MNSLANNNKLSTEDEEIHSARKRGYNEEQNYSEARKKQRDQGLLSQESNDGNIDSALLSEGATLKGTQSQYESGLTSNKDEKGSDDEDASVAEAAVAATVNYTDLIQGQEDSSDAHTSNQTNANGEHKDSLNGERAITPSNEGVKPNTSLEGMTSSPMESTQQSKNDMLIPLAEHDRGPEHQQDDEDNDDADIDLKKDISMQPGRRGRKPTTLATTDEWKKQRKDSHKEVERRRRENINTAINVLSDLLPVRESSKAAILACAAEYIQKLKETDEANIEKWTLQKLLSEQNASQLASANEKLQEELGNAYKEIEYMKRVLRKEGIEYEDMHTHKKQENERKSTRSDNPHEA
Notes: whole 60-bp probe, lowest competitor level
| Strand | fluorescence intensity [a.u.] |
| --- | --- |
| CTTCTGTAAATTTGCGGGGTGGGTGGACGCGCCCCGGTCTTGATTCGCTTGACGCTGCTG | 78.9 |
| CATAACAGTCTAGAGCGCGTGGGTAATACGGCTGTTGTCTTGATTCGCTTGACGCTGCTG | 80 |
| AAAGCGGTAATTTGTCCTGTGGGTGCAGATATCTATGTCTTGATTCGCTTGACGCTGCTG | 71.8 |
| CGGCTTACTTTGTAACGCGTGGTCGCCTATACACCGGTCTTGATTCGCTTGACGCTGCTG | 99.9 |
| CTTCTGTAAATTTTTCACGTGCTATGACGCGCCCCGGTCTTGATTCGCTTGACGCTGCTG | 1350 |
| ATTCCTGAAGAATCCAAAGGATCTTTTAAGTATATAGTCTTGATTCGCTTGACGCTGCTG | 87.5 |
| ATTCCAAACGTTACCCACGTTATCAACTACGATTTAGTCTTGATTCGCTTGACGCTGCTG | 121 |
| AAATTACTAAGTTGTTAAGTGGGTGACGCCGTATGAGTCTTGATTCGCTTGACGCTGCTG | 84.3 |
| CGTCCTAGTGATTTTCACGTGCCGTCCATGAGGAAGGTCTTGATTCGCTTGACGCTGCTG | 1200 |
| TCGAGGTTCTCTTTCCCCGTGCCAGACTTGGCTTGAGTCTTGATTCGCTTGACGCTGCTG | 68 |
| GTCTTGTCTCATTGTCACTCTACTTTCCCCACTTCAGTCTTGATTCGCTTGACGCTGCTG | 95.3 |
| AAGCTCGTTGGTTTGCACGTATCTTAGGCTTCACTAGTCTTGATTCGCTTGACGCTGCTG | 68.3 |
| ATTGTTCCACCCGACCACGTGCTTTTTCATAAGGGTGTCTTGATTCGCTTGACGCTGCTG | 2420 |
| CATACCCAACCTTGTCACAACACTTAAGATATTTGTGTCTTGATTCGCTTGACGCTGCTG | 102 |
| CGTCCTAGCGATTGAGTGGTGGGTGCCATGAGGAAGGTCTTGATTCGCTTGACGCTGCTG | 76.8 |
| CTTCTGTAAATTTGTCACGCCACTTGACGCGCCCCGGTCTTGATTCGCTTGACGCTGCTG | 316 |

Block 2 — target: CREB5, bZIP domain (human); method: DHFR protein complementation; sample: yeast; baseline: wild-type JUN-FOS pair; reading: higher = stronger binding
Notes: single substitutions, most at no-binding floor
Starting sequence: JUN, bZIP domain (human); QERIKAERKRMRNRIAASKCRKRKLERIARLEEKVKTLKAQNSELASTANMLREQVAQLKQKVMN; partner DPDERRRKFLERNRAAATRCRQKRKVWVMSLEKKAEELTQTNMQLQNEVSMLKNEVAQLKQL
| Substitution | binding fitness |
| --- | --- |
| K36M | -0.173 natural log |
| Q41F | -1.38 natural log |
| L52D | -1.33 natural log |
| L52H | -1.35 natural log |
| R30V | -0.143 natural log |
| T37N | -0.177 natural log |
| L59W | -1.04 natural log |
| E44V | -0.382 natural log |
| L59A | -1.15 natural log |
| N42E | -0.73 natural log |
| E44D | -0.523 natural log |
| A40K | -0.128 natural log |
| K34G | -1.08 natural log |
| R30W | -0.332 natural log |
| L59V | -1.19 natural log |
| T48Q | -0.146 natural log |
| V35S | -1.33 natural log |
| K39A | -0.408 natural log |
| V56D | -1.48 natural log |
| A40H | -0.326 natural log |
| S47D | -0.168 natural log |

Block 3 — target: CCNB3, cyclin fold, Cln2 fusion (human); method: yeast growth competition, sequencing; sample: yeast; notes: strong parent motif; baseline: not given; reading: higher = stronger binding
Starting sequence: RBL2 docking peptide (human); STTRRRLFVENDS; partner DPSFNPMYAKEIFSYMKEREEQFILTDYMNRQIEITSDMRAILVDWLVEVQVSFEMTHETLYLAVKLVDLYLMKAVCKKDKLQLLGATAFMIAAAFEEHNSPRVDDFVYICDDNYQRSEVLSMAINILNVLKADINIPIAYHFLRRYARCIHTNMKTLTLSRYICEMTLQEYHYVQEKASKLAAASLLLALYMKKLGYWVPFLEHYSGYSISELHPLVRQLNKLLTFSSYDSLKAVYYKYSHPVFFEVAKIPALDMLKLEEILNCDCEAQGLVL
| Substitution | normalised enrichment score |
| --- | --- |
| STTRRRLFFENDS [V9F] | 1.16 |
| STGRRRLFVENDS [T3G] | 0.701 |
| STWRRRLFVENDS [T3W] | 0.376 |
| STTRRRLFVPNDS [E10P] | 1.31 |
| STTRRRLFVENDG [S13G] | 1.22 |
| STTRGRLFVENDS [R5G] | -0.0859 |
| SATRRRLFVENDS [T2A] | 0.974 |
| STTRRRLFVEQDS [N11Q] | 1.19 |
| STTRRRLHVENDS [F8H] | -0.0767 |
| STTDRRLFVENDS [R4D] | -0.525 |
| STTRRRLFVEFDS [N11F] | 0.601 |
| STTRRRLFVENWS [D12W] | 0.581 |
| STTRRRPFVENDS [L7P] | 0.411 |
| STTRFRLFVENDS [R5F] | 0.192 |
| SITRRRLFVENDS [T2I] | -0.175 |
| STTRRRLFVENKS [D12K] | 0.651 |
| STTRRRLFVEGDS [N11G] | 0.98 |
| DTTRRRLFVENDS [S1D] | 1.03 |
| STTRRKLFVENDS [R6K] | 1.58 |
| STTRRRLFVEDDS [N11D] | 1.46 |
| STTLRRLFVENDS [R4L] | 0.845 |
| QTTRRRLFVENDS [S1Q] | 0.879 |
| WTTRRRLFVENDS [S1W] | 0.626 |
| STTRRQLFVENDS [R6Q] | 0.433 |
| STTRRRLFVENLS [D12L] | 0.277 |

Block 4 — method: DHFR PCA, deep sequencing; sample: yeast; added: (+)-ABA 4.8 µM; baseline: wild-type fitted maximum; reading: higher = stronger binding
Target: ABI1, truncated, D143A, DHFR fusion (Arabidopsis thaliana)
Notes: methotrexate growth selection, single substitutions
Starting sequence: PYL1, truncated, DHFR fusion (Arabidopsis thaliana); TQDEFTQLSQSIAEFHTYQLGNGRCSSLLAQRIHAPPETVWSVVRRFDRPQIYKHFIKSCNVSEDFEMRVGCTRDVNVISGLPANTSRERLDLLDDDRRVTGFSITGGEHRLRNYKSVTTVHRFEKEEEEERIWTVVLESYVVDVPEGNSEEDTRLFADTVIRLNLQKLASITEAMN
| Substitution | relative binding score |
| --- | --- |
| D75G | 17.4% |
| N61Y | 69.1% |
| V121Y | -6.05% |
| V136I | 86% |
| D95R | 1.58% |
| A175C | 69.2% |
| E4M | 69.4% |
| T17F | 14.3% |
| R155I | 62.3% |
| F157Y | 25.5% |
| S42Y | 12.9% |
| F124T | 25.5% |
| T160C | 46.1% |
| F56N | -1.42% |

Block 5 — method: protein-binding microarray; form: double-stranded DNA, one strand shown; sample: in vitro; tested at: 940 nM top; notes: 60-bp whole probe; added: salmon DNA 0.4 mg/ml; baseline: random background probes; reading: higher = stronger binding; constant ends, left off below: GCCTAGCAC … GTCTTGATTCGCTTGACGCTGCTG
Target: Interferon regulatory factor 5, full length, phosphomimetic (IRF5, Homo sapiens, UniProt Q13568-2, residues 1-514, S451D/S453D/S456D/S462D)
| Strand | fitted relative affinity |
| --- | --- |
| TACGATTTCAGTCTCGAGACGTGCTAG | 2.01 z-score |
| CTAGGACTGGGTTTCGGTTAGTGCTAG | 7.44 z-score |
| TTAGATTTCAGTCTCGATTTGTGCTAG | 4.04 z-score |
| TCATCTTTCACTACTCCACTGTGCTAG | 2.39 z-score |
| TCAATGATTGGTTGAACACTGTGCTAG | -0.289 z-score |
| TCAATTCTCTGCTTGCGACTGTGCTAG | 0.992 z-score |
| TTACATATCGGGTTTCGATTAGTGCTA | 5.23 z-score |
| AACGGACTGGGACTGGGGACGTGCTAG | -0.587 z-score |
| TTAGGTATCGACTCTGGGTTAGTGCTA | 5.2 z-score |
| ATCTTTTTCCTAATTGAACCGTGCTAG | 0.75 z-score |
| GACGGTTTCGGGTATCGGGAAGTGCTA | 9.52 z-score |
| TTAGGTTTCGGACTTGGTTAGTGCTAG | 6.62 z-score |
| CAAACACTGGTTTTTACTTTGTGCTAG | -0.0916 z-score |
| GGTTTTTACTTTCTGAATGCGTGCTAG | 2.17 z-score |
| GACGAACTGGGGACTGGATACGTGCTA | -0.196 z-score |
| TTAGGTTTCCTACTGGTTTAGTGCTAG | 0.709 z-score |
| TCGTATGTGACCTTTTTAAGAGTGCTA | 0.617 z-score |
| TTAGATTTCAGTTCCGATGAGTGCTAG | 1.61 z-score |
| GACAATTTCAGTTTCGAGACGTGCTAG | 4.96 z-score |
| TCATTTCTCCTATTTAAACTGTGCTAG | 1.34 z-score |
| GATGGACTGCTTTTCCTGACGTGCTAG | -0.32 z-score |
| TTAGGTGTCCTTCTCCTTTAGTGCTAG | 0.0767 z-score |
| GACGAACTGAGTTTCGTGACGTGCTAG | 1.59 z-score |
| GACTGTTTCCTTATCCTGACGTGCTAG | 1.49 z-score |
| GACGCTATCGGGTATCGGGACGTGCTA | 0.754 z-score |

Excerpt of the above (block 3):
| Substitution | normalised enrichment score |
| --- | --- |
| STTRRQLFVENDS [R6Q] | 0.433 |
| STTRRRLHVENDS [F8H] | -0.0767 |
| QTTRRRLFVENDS [S1Q] | 0.879 |
| STTRRRPFVENDS [L7P] | 0.411 |
| DTTRRRLFVENDS [S1D] | 1.03 |
| STTRRRLFVENDG [S13G] | 1.22 |
| STTRRRLFFENDS [V9F] | 1.16 |
| STTRRRLFVENLS [D12L] | 0.277 |
| STTRRRLFVENKS [D12K] | 0.651 |
| STTRRRLFVEFDS [N11F] | 0.601 |
| SITRRRLFVENDS [T2I] | -0.175 |
| STTLRRLFVENDS [R4L] | 0.845 |
